Experimental data from different studies.
Compare with care: the assays were run in different laboratories. Numbers after ± are the reported error.
Cell line: A2780

CC(C)=CCC1=C([O-])C(=O)c2ccccc2C1=O.O=[N+]([O-])[O-].[Cu+2].c1ccc(-c2cccc(-c3ccccn3)n2)nc1  IC50 (cell viability, MTT; 72 h): 0.38 ± 0.01 µM
CC12CCC3c4ccc(OCCCOc5no[n+]([O-])c5S(=O)(=O)c5ccccc5)c(Br)c4CCC3C1CCC2O (stereo not drawn)  intracellular nitrite (Griess; 100 µM, 150 min): 57 µM
Oc1ccccc1-c1nn(-c2ccccn2)[n+](-c2ccccc2)n1.[Br-]  late apoptotic cells (flow cytometry; 40 µM, 48 h): 30%
COc1ccc(CC2COC(=O)C2Cc2ccc3c(c2)OCO3)cc1OC (mixture of isomers)  protein level (western blot, refers to: PUMA; IC50, 48 h; baseline: 0 h): increased
O=C(OCc1ccc(F)cc1)N(Cc1cccc(CN2CCCCC2)c1)[c-]1cccc1.[Fe+2].c1cc[cH-]c1  mitochondrial ROS (MitoSOX; 25 µM, 2 h): increased
Cc1cc(C)c(N=[C](NCc2ccc(N)cc2)[AuH][Cl])c(C)c1  IC50 (cell growth or viability): 1.9 µM
CC(C)c1cccc(C(C)C)c1-n1c(Cl)c(Cl)n(-c2c(C(C)C)cccc2C(C)C)c1=[Se].[Cl][Ag]  IC50 (cell growth or viability; 72 h, 3D culture): 29.1 µM
C#CCN(C(=O)OCc1ccc(C(=O)N(C)C)cc1)[c-]1cccc1.[Fe+2].c1cc[cH-]c1  total ROS level (CM-DCFH-DA; 25 µM, 2 h; baseline: DMSO): 6.1 ± 0.7 fold
Cc1cc(C)c([N+]#[C][Pd-]([Cl])([Cl])=[C](Nc2cccc(CN[C](Nc3c(C(C)C)cccc3C(C)C)=[Au][Cl])c2)Nc2c(C)cc(C)cc2C)c(C)c1  IC50 (cell growth or viability): 12 µM
Cc1c(C)n(-c2c(C(C)C)cccc2C(C)C)c(=[Se])n1-c1c(C(C)C)cccc1C(C)C.[Cl][Ag]  IC50 (cell growth or viability, MTT; 72 h): 0.5 µM
CCCCCCCCCCCCCCCCNC(=O)[O][Pt]([Cl])([Cl])[O]C(=O)CCC(=O)O.N.N  cells in S phase (flow cytometry; 0.2 µM, 24 h): 51.1%
CC(C)c1cccc(C(C)C)c1[N+]#[C][Pt-]([Cl])([Cl])=[C](Nc1ccc(CN[C](NC(C)(C)C)=[Au][Cl])cc1)Nc1c(C(C)C)cccc1C(C)C  IC50 (cell growth or viability): > 100 µM
[Br-].c1ccc(-c2nn(-c3ccccn3)[n+](-c3ccccc3)n2)cc1  late apoptotic cells (flow cytometry; 40 µM, 48 h): 15%
CC(C)=CCC1=C([O-])C(=O)c2ccccc2C1=O.CC(C)=CCC1=C([O-])C(=O)c2ccccc2C1=O.[Cu+2].c1ccc(-c2ccnc3c2ccc2c(-c4ccccc4)ccnc23)cc1  intracellular copper (ICP-MS; concentration not given, 24 h; baseline: untreated): ~4 fold
Cc1cc(C)c([N+]#[C][Pt-]([Cl])([Cl])=[C](Nc2ccc(CN[C](Nc3c(C(C)C)cccc3C(C)C)=[Au][Cl])cc2)Nc2c(C)cc(C)cc2C)c(C)c1  IC50 (cell growth or viability): > 100 µM

Some of these lines once more:
Cc1cc(C)c([N+]#[C][Pt-]([Cl])([Cl])=[C](Nc2ccc(CN[C](Nc3c(C(C)C)cccc3C(C)C)=[Au][Cl])cc2)Nc2c(C)cc(C)cc2C)c(C)c1  IC50 (cell growth or viability): > 100 µM
